Experimental data from different studies.
Parts stem from different laboratories: compare values within a part only.
Chain of UniProt P36897 (whole entry, looked up): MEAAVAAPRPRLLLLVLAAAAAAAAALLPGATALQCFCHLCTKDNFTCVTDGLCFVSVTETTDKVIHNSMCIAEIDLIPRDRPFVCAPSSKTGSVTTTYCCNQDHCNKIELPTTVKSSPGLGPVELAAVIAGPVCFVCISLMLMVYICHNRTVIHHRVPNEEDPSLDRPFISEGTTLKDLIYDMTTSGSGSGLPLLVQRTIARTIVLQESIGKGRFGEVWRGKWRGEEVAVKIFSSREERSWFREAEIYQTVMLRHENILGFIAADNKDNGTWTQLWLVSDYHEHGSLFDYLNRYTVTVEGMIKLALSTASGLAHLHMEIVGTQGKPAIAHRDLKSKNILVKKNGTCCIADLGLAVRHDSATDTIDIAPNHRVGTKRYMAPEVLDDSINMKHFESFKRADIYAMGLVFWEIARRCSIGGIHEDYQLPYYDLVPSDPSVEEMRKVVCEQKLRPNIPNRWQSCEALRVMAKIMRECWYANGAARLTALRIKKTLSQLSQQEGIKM
Chain of UniProt Q9UL54 (whole entry, looked up): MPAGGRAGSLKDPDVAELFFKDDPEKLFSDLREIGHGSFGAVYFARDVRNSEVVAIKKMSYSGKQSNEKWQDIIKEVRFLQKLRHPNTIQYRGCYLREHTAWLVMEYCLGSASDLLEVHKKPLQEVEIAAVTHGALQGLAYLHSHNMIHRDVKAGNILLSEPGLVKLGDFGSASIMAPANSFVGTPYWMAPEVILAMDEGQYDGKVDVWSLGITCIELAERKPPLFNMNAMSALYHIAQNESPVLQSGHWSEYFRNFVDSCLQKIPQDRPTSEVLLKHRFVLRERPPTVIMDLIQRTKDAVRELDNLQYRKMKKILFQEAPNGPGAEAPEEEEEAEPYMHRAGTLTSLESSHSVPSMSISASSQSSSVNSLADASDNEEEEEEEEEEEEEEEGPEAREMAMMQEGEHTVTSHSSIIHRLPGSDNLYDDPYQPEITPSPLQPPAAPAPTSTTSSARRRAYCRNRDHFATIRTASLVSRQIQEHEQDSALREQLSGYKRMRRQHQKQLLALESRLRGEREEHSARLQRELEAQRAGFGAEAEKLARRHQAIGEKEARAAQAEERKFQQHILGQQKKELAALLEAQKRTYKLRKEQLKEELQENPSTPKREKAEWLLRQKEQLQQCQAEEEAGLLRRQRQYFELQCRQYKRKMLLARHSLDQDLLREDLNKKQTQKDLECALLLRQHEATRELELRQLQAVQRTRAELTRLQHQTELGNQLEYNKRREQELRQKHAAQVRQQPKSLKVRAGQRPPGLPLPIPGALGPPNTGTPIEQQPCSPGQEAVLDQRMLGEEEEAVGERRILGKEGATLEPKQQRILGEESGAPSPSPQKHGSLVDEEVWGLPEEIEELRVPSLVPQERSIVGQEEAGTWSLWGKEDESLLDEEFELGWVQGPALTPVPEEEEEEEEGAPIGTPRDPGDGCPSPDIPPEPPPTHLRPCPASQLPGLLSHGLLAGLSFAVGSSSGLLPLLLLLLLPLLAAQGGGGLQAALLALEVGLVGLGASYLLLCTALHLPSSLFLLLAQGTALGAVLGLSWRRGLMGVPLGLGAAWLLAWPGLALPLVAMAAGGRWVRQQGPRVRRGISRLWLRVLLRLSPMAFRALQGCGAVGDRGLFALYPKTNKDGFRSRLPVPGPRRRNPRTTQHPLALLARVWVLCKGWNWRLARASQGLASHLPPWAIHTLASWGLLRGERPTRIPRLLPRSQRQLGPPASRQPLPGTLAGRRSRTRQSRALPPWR
Chain of UniProt O75676 (whole entry, looked up): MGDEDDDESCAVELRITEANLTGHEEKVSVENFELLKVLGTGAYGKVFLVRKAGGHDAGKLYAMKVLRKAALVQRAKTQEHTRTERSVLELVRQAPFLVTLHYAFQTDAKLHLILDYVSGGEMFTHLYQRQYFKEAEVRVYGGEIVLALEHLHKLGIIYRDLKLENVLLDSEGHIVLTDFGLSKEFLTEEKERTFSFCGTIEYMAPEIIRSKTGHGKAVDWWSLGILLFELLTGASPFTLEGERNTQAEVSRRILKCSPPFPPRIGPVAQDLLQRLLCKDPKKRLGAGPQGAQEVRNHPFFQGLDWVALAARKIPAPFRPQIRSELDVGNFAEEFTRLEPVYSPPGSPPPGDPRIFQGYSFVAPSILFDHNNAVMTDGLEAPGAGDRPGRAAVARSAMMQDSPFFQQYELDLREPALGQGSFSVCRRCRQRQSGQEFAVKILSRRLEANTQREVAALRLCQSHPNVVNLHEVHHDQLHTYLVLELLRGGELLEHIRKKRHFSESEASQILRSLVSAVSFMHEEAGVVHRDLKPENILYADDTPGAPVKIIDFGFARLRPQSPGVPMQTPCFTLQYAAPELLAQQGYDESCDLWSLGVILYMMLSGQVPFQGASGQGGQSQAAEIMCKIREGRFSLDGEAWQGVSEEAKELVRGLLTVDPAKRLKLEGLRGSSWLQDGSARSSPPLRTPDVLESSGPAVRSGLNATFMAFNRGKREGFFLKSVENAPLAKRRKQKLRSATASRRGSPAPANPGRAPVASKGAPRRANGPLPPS
Chain of UniProt O15111 (whole entry, looked up): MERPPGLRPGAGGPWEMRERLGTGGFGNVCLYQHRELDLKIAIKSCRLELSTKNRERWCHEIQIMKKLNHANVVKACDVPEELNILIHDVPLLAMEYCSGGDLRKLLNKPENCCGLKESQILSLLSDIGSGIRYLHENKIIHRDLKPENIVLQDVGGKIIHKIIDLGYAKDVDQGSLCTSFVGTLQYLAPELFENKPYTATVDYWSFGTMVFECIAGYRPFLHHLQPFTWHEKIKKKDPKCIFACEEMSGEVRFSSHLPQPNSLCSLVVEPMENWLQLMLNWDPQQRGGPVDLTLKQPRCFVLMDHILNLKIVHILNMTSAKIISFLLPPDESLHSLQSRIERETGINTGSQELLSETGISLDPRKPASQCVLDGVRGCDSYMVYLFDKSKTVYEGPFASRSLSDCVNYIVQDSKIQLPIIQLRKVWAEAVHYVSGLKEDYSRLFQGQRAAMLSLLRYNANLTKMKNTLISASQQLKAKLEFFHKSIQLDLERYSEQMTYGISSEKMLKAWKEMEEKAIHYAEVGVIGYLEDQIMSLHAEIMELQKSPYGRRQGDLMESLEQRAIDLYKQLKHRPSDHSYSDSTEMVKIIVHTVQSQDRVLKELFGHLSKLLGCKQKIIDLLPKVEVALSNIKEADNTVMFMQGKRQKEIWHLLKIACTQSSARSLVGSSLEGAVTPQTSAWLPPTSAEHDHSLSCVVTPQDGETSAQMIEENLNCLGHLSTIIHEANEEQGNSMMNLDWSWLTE

Sample 1 — effect on: enzyme activity; mode: inhibitor; tested at: 10 µM
Target: Calcium/calmodulin-dependent protein kinase type II subunit alpha (CAMK2A, Homo sapiens, UniProt Q9UQM7)
Chain of UniProt Q9UQM7 (whole entry, looked up): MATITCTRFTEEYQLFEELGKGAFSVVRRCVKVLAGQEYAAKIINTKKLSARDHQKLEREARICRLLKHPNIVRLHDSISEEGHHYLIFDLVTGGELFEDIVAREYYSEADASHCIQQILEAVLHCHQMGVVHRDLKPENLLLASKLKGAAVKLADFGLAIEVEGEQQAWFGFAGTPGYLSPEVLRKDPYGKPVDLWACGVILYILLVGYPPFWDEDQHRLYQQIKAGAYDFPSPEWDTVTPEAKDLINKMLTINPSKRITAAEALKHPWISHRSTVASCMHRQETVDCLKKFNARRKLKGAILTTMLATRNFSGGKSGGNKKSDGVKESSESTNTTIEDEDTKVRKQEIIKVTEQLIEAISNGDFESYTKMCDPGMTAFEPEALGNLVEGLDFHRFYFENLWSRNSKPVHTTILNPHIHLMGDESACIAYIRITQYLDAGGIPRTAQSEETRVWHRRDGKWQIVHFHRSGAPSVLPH
The inhibition of `NCCCNCCSP(=O)(O)O` is reported as -6%.
`COc1cc2c(cc1Cc1cccc(Cl)c1F)c(=O)c(C(=O)O)cn2[C@H](CO)C(C)C` gave an inhibition of 1%.
For `CC(=O)Nc1ccc(CC(=O)O)cc1`, the inhibition was -3%.
With `Nc1cc[nH]c(=O)n1` the inhibition was -15%.
With `OCC(S)CS` (stereo not shown) the inhibition was 4%.
The inhibition of `NC(C(=O)O)C(=O)O` is reported as 25%.
`COc1cc2ncnc(Nc3ccc(F)c(Cl)c3)c2cc1OCCN1CC2(CC2)C2(C1)OCCO2` has an inhibition of -4%.
With `CNc1ccc(/C=C/c2ccc(OCCOCCOCCF)nc2)cc1` the inhibition was 5%.
For `COc1ccc(CCO)cc1`, the inhibition was -13%.
For `COC(=O)C1=CO[C@@H](O[C@@H]2O[C@H](CO)[C@@H](O)[C@H](O)[C@H]2O)[C@H]2[C@@H]1[C@H](O)C[C@]2(C)OC(C)=O`, the inhibition was -21%.
With `O=C(/C=C/c1ccc(O)cc1)NCCc1c[nH]c2ccc(O)cc12` the inhibition was -17%.
For `Cc1nc(-c2ccc(OCC(C)C)c(C#N)c2)sc1C(=O)O`, the inhibition was -9%.

Sample 2 — mode: agonist
Target: Beta-1 adrenergic receptor (ADRB1, Homo sapiens, UniProt P08588)
Chain of UniProt P08588 (whole entry, looked up): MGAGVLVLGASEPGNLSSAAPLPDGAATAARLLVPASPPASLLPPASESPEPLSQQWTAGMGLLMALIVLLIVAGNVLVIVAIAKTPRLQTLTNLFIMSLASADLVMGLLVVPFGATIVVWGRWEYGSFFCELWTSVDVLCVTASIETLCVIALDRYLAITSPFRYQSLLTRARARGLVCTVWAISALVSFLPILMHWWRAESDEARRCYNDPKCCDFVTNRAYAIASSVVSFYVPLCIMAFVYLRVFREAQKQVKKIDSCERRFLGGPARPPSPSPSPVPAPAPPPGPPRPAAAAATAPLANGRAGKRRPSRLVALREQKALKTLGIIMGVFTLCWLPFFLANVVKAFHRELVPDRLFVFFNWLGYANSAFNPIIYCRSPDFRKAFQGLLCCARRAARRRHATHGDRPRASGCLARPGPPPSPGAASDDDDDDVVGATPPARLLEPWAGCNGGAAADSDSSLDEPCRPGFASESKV
With `COC(=O)CN1CCN(c2ccccc2OC)CC1` the Emax was 32%.
For `CCOC(=O)COc1ccc2c(c1)C[C@@H](NC[C@H](O)c1cccc(Cl)c1)CC2`, the Emax was 89.2%.
The Emax of `CC[C@H](NC(C)C)[C@H](O)c1ccc(O)c2[nH]c(=O)ccc12` (racemic) is reported as 98.2%.
For `COc1ccc(CCNCC(O)COc2cccc(C)c2)cc1OC` (stereo not shown), the Emax was 61.6%.
For `COc1ccccc1N1CCN(CC[C@@H]2CC[C@H](O)[C@@H](C(=O)NC(C)C)O2)CC1`, the Emax was 97.7%.
`CN(Cc1cnn(C)c1)Cc1ccccc1OCC(O)CN1CCCCC1` (stereo not shown) has an Emax of 96.7%.
With `COc1ccccc1OCC(O)CN1CCN(CC(=O)Nc2c(C)cccc2C)CC1` (stereo not shown) the Emax was 70.5%.

Sample 3 — effect on: enzyme activity; mode: inhibitor; tested at: 0.5 µM; relative to: control
Target: Tyrosine-protein kinase ZAP-70 (ZAP70, Homo sapiens, UniProt P43403)
Chain of UniProt P43403 (whole entry, looked up): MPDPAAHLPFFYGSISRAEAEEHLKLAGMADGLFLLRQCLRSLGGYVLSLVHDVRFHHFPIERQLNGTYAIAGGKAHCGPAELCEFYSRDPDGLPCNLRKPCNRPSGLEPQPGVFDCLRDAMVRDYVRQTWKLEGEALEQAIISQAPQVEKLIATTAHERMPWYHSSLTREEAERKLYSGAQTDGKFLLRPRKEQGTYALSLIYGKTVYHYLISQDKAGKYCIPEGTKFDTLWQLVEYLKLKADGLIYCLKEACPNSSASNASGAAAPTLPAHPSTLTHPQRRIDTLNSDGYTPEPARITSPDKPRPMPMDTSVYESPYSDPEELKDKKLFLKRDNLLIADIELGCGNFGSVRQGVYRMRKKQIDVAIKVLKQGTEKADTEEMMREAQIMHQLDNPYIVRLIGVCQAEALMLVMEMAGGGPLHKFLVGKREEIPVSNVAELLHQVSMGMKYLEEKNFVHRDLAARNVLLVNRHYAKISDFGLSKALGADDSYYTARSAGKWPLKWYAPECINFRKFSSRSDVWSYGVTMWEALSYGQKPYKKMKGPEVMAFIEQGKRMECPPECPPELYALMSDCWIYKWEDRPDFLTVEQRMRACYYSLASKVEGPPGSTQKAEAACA
The remaining activity of `CCCCc1c(-c2ccc(OC)cc2)[nH]c2nccnc12` is reported as 74.2%.
With `COc1ccc2c(c1)c(C1=C(c3c[nH]c4ccccc34)C(=O)NC1=O)cn2CCCN(C)C` the remaining activity was 90.3%.
The remaining activity of `O=C1Nc2ccc(Br)cc2/C1=C/c1cc2c([nH]1)CCCC2` is reported as 93.9%.
The remaining activity of `c1ccc2c(-c3ccncc3)c[nH]c2c1` is reported as 105%.
`CN(C)S(=O)(=O)c1ccc2c(c1)/C(=C/c1cc3c([nH]1)CCCC3)C(=O)N2` gave a remaining activity of 90%.
The remaining activity of `O=C1Cc2c([nH]c3ccc(Br)cc23)-c2ccccc2N1` is reported as 93.6%.
`COc1cccc(-c2cc(=O)c3ccccc3o2)c1N` gave a remaining activity of 107%.
For `O=c1cc(N2CCOCC2)oc2c(-c3ccccc3)cccc12`, the remaining activity was 102%.
For `O=C(c1cc2cc(O)ccc2[nH]1)c1cc2cc(O)ccc2[nH]1`, the remaining activity was 101%.
`Cc1ccc(S(=O)(=O)/C=C/C#N)cc1` gave a remaining activity of 97.5%.
`c1ccc(-c2n[nH]c3c2oc2ccccc23)cc1` gave a remaining activity of 89%.
For `O=Nc1c(-c2c(O)[nH]c3cc(Br)ccc23)[nH]c2ccccc12`, the remaining activity was 107%.
For `O=C1Nc2ccccc2/C1=C\c1c(Cl)[nH]c2ccccc12`, the remaining activity was 106%.
For `CN1CCN(c2ccc3nc(-c4c(N)c5c(F)cccc5[nH]c4=O)[nH]c3c2)CC1`, the remaining activity was 107%.
For `CCCNC(=O)Nc1ccc(Oc2ncnc3cc(OC)c(OC)cc23)cc1Cl`, the remaining activity was 102%.
`Oc1cccc(-c2nc(N3CCOCC3)c3oc4ncccc4c3n2)c1` has a remaining activity of 91.4%.
The remaining activity of `O=C1NC(=O)c2c1c1c3ccccc3[nH]c1c1[nH]c3cc(Br)ccc3c21` is reported as 104%.
With `N#Cc1cnc2cnc(NCc3cccnc3)cc2c1Nc1ccc(F)c(Cl)c1` the remaining activity was 103%.

Sample 4 — tested at: 0.1 µM
Compound: CS(=O)(=O)N1CCCC(NC(=O)[C@H](CCC2CCCCC2)NC(=O)c2ccc(CNC(=O)c3cnc4ccccn34)cc2)C1 (stereo partly shown)
It gave 84% for remaining binding (TGF-beta receptor type-1 (TGFBR1, Homo sapiens, UniProt P36897); cell-free assay, competition with immobilised ligand).
Serine/threonine-protein kinase PLK3 (PLK3, Homo sapiens, UniProt Q9H4B4); cell-free assay, competition with immobilised ligand — remaining binding: 96%.
It gave 100% for remaining binding (Inhibitor of nuclear factor kappa-B kinase subunit alpha (CHUK, Homo sapiens, UniProt O15111); cell-free assay, competition with immobilised ligand).
MAP/microtubule affinity-regulating kinase 4 (MARK4, Homo sapiens, UniProt Q96L34); cell-free assay, competition with immobilised ligand — remaining binding: 100%.
Cyclin-dependent kinase 4, with cyclin D1 (CDK4, Homo sapiens, UniProt P11802); cell-free assay, competition with immobilised ligand — remaining binding: 100%.
The remaining binding was 74% (Serine/threonine-protein kinase PRP4 homolog (PRPF4B, Homo sapiens, UniProt Q13523); cell-free assay, competition with immobilised ligand).
Epidermal growth factor receptor (EGFR, Homo sapiens, UniProt P00533, del747-750/T751S); cell-free assay, competition with immobilised ligand — remaining binding: 100%.
For Myosin light chain kinase family member 4 (MYLK4, Homo sapiens, UniProt Q86YV6); cell-free assay, competition with immobilised ligand: remaining binding read 63%.
For Serine/threonine-protein kinase TAO2 (TAOK2, Homo sapiens, UniProt Q9UL54); cell-free assay, competition with immobilised ligand: remaining binding read 91%.
It gave 87% for remaining binding (Ephrin type-B receptor 3 (EPHB3, Homo sapiens, UniProt P54753); cell-free assay, competition with immobilised ligand).
The remaining binding was 85% (Misshapen-like kinase 1 (MINK1, Homo sapiens, UniProt Q8N4C8); cell-free assay, competition with immobilised ligand).
The remaining binding was 97% (Ribosomal protein S6 kinase alpha-4, N-terminal kinase domain (RPS6KA4, Homo sapiens, UniProt O75676); cell-free assay, competition with immobilised ligand).
The remaining binding was 72% (Serine/threonine-protein kinase tousled-like 1 (TLK1, Homo sapiens, UniProt Q9UKI8); cell-free assay, competition with immobilised ligand).
For AP2-associated protein kinase 1 (AAK1, Homo sapiens, UniProt Q2M2I8); binding: remaining binding read 92%.
Testis-specific serine/threonine-protein kinase 3 (TSSK3, Homo sapiens, UniProt Q96PN8); cell-free assay, competition with immobilised ligand — remaining binding: 93%.

For quick reference, copied from above (sample 4):
For Myosin light chain kinase family member 4 (MYLK4, Homo sapiens, UniProt Q86YV6); cell-free assay, competition with immobilised ligand: remaining binding read 63%.
For Serine/threonine-protein kinase TAO2 (TAOK2, Homo sapiens, UniProt Q9UL54); cell-free assay, competition with immobilised ligand: remaining binding read 91%.
It gave 87% for remaining binding (Ephrin type-B receptor 3 (EPHB3, Homo sapiens, UniProt P54753); cell-free assay, competition with immobilised ligand).
The remaining binding was 85% (Misshapen-like kinase 1 (MINK1, Homo sapiens, UniProt Q8N4C8); cell-free assay, competition with immobilised ligand).
The remaining binding was 97% (Ribosomal protein S6 kinase alpha-4, N-terminal kinase domain (RPS6KA4, Homo sapiens, UniProt O75676); cell-free assay, competition with immobilised ligand).
The remaining binding was 72% (Serine/threonine-protein kinase tousled-like 1 (TLK1, Homo sapiens, UniProt Q9UKI8); cell-free assay, competition with immobilised ligand).
For AP2-associated protein kinase 1 (AAK1, Homo sapiens, UniProt Q2M2I8); binding: remaining binding read 92%.
Testis-specific serine/threonine-protein kinase 3 (TSSK3, Homo sapiens, UniProt Q96PN8); cell-free assay, competition with immobilised ligand — remaining binding: 93%.
